Published values collected from several papers.
Each numbered part is a random draw from the data of one study; scales do not carry over between parts.

Series 1
Target: Protein C-ets-1 (ETS1, Homo sapiens, UniProt P14921, residues 1-441, full length assumed)
Method: protein-binding microarray
Molecule type: double-stranded DNA, one strand shown
Medium: in vitro
Tested at: not given
Notes: k-mer, scored over probes, only values ≥0.25
Direction: higher = stronger binding
Residues (chain): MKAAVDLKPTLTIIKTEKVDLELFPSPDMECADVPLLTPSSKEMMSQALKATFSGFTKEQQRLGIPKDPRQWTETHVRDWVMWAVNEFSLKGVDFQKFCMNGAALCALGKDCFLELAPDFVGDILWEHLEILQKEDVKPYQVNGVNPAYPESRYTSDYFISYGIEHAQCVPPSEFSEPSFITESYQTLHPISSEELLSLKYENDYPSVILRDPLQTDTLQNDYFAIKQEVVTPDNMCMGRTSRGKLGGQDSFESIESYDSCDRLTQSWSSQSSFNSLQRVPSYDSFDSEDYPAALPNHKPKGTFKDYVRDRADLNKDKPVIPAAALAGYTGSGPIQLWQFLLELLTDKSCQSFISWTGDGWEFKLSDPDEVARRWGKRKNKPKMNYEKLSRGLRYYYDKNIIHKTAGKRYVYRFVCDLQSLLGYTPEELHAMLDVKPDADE
`GGATGCCA` has an E-score of 0.289.
With `TCCTGCCA` the E-score was 0.332.
With `GGGAAACC` the E-score was 0.287.
The E-score of `ACATCCTC` is reported as 0.428.

Series 2
Target: Histone acetyltransferase KAT6A, winged helix 1, GST fusion (KAT6A, Homo sapiens, UniProt Q92794, residues 1-85)
Method: protein binding microarray
Molecule type: double-stranded DNA, one strand shown
Medium: in vitro
Tested at: not given
Notes: 8-mer, flanks averaged, mean of 2 arrays, mostly near background
Baseline: not given
Direction: higher = stronger binding
Construct (chain): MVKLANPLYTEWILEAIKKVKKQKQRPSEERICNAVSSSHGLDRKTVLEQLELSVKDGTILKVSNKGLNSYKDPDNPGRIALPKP
The E-score of `TGATCCCA` is reported as -0.201.
With `AGGGTAAT` the E-score was -0.0986.
The E-score of `AGGACACC` is reported as 0.0546.
With `GATCTTAA` the E-score was -0.00556.
`ATAGACTC` has an E-score of -0.0728.
The E-score of `AAATATCC` is reported as -0.0784.
With `CATCAAAA` the E-score was 0.0381.
`CTGAGTTA` gave an E-score of -0.12.

Series 3
Target: Replicase polyprotein 1ab, nsp13 helicase (rep, Severe acute respiratory syndrome coronavirus 2, UniProt P0DTD1)
Mode: inhibitor
Tested at: 20 µM
For `O=C(OCC(COC(=O)c1cccnc1)(COC(=O)c1cccnc1)COC(=O)c1cccnc1)c1cccnc1`, the inhibition was -3.26%.
With `Cc1nc(=O)c2cc(CN(C)c3ccc(C(=O)N[C@@H](CCC(=O)O)C(=O)O)s3)ccc2[nH]1` the inhibition was 0.49%.
The inhibition of `CCOc1ccccc1OCC1CNCCO1` (stereo not drawn) is reported as -3.15%.
The inhibition of `CN(C)C(=O)c1ccc(S(=O)(=O)c2ccc(NC(=O)[C@@](C)(O)C(F)(F)F)c(Cl)c2)cc1` is reported as -3.05%.
`Cc1c(CC(C)(C)C(=O)O)n(Cc2ccc(Cl)cc2)c2ccc(F)cc12` has an inhibition of 6.43%.
The inhibition of `O=C(O)Cc1ccc(OCCNC[C@H](O)c2ccccc2)cc1` is reported as -13.1%.
With `O=C1C2CC3CC1CC(O)(C3)C2` the inhibition was 1.83%.
The inhibition of `c1cc(CN2CCCNCCNCCCNCC2)ccc1CN1CCCNCCNCCCNCC1` is reported as 1.32%.
For `CN1C(=O)CC(C)(c2ccccc2)C1=O` (stereo not drawn), the inhibition was 4.26%.
`CCOC(=O)OC(C)OC1=C(C(=O)Nc2ccccn2)N(C)S(=O)(=O)c2ccccc21` (stereo not drawn) gave an inhibition of 11.2%.
The inhibition of `CC(C)c1ccccc1S(=O)(=O)c1cc(N)c2ncccc2c1[N+](=O)[O-]` is reported as 3.03%.
The inhibition of `CN(C)CC(=O)Nc1ccc2[nH]c(=O)c3ccccc3c2c1` is reported as 7.48%.
With `C[C@]12CCC(=O)C[C@@H]1CC[C@@H]1[C@@H]2CC[C@]2(C)[C@@H](O)CC[C@@H]12` the inhibition was 6.53%.
`CCn1cc(-c2ccnc3[nH]c(-c4cccc(CN(C)C)c4)cc23)c(-c2ccc(NC(=O)N(C)C)cc2)n1` gave an inhibition of 7.57%.
`C1CCC(N=C(NC23CC4CC(CC(C4)C2)C3)N2CCOCC2)CC1` gave an inhibition of 2.14%.
With `CC(C)[C@@H]1CC[C@@H](C)C[C@@H]1P(=O)(c1ccccc1)c1ccccc1` the inhibition was 12.4%.
`CCC(=O)NS(=O)(=O)c1ccc(-c2c(-c3ccccc3)noc2C)cc1` has an inhibition of -5.11%.
With `C=C1CC[C@@]2(O)[C@H]3Cc4ccc(O)c5c4[C@@]2(CCN3CC2CC2)[C@H]1O5` the inhibition was -0.03%.

Series 4
Target: Replicase polyprotein 1ab, main protease (rep, Severe acute respiratory syndrome coronavirus 2, UniProt P0DTD1)
Read-out: enzyme activity
Mode: inhibitor
Tested at: 20 µM
Notes: primary screen
`C[C@H]1COC2=C1C(=O)C(=O)c1c2ccc2c1CCCC2(C)C` gave an inhibition of 79.7%.
For `Sc1nnnn1-c1ccccc1`, the inhibition was 97.8%.
With `C/C(=N\NC(=N)N)c1cc(NC(=O)CCCCCCCCC(=O)Nc2cc(/C(C)=N/NC(=N)N)cc(/C(C)=N/NC(=N)N)c2)cc(/C(C)=N/NC(=N)N)c1` the inhibition was 25.7%.
`CCOc1ccc(Nc2nc(-c3c(C)nc4ccccn34)cs2)cc1` has an inhibition of 76%.

Series 5
Cell line: HEK-293T/ACE2
Read-out: pseudovirus infection
Organism: VSV pseudotyped with SARS-CoV-2 spike
Tested at: 10 µM
Time: 16 h
Baseline: vehicle-treated
`COc1ccc(OC)c(C(O)CNC(=O)CN)c1` (stereo not drawn) has a GFP-positive cells of 65.2%.
`Nc1nc2c(ncn2CCC(CO)CO)c(=O)[nH]1` gave a GFP-positive cells of 88.3%.
With `C#C[C@]1(O)CC[C@H]2[C@@H]3CCC4=CC(=O)CC[C@@H]4[C@H]3CC[C@@]21C` the GFP-positive cells was 80.8%.
`CO[C@H]1/C=C/O[C@@]2(C)Oc3c(C)c(O)c4c(O)c(c(/C=N/N5CCN(C6CCCC6)CC5)c(O)c4c3C2=O)NC(=O)/C(C)=C\C=C\[C@H](C)[C@H](O)[C@@H](C)[C@@H](O)[C@@H](C)[C@H](OC(C)=O)[C@@H]1C` has a GFP-positive cells of 62.3%.
`CC(S)C(=O)NCC(=O)O` (stereo not drawn) gave a GFP-positive cells of 77.5%.

For quick reference, copied from above (series 2):
The E-score of `TGATCCCA` is reported as -0.201.
With `AGGGTAAT` the E-score was -0.0986.
The E-score of `AGGACACC` is reported as 0.0546.
With `GATCTTAA` the E-score was -0.00556.
`ATAGACTC` has an E-score of -0.0728.
The E-score of `AAATATCC` is reported as -0.0784.
